Measurements gathered from unrelated publications.
Compare with care: the assays were run in different laboratories.
USP51: Ubiquitin carboxyl-terminal hydrolase 51 (USP51, Homo sapiens, UniProt Q70EK9)
UniProt Q70EK9, sequence (whole entry, looked up): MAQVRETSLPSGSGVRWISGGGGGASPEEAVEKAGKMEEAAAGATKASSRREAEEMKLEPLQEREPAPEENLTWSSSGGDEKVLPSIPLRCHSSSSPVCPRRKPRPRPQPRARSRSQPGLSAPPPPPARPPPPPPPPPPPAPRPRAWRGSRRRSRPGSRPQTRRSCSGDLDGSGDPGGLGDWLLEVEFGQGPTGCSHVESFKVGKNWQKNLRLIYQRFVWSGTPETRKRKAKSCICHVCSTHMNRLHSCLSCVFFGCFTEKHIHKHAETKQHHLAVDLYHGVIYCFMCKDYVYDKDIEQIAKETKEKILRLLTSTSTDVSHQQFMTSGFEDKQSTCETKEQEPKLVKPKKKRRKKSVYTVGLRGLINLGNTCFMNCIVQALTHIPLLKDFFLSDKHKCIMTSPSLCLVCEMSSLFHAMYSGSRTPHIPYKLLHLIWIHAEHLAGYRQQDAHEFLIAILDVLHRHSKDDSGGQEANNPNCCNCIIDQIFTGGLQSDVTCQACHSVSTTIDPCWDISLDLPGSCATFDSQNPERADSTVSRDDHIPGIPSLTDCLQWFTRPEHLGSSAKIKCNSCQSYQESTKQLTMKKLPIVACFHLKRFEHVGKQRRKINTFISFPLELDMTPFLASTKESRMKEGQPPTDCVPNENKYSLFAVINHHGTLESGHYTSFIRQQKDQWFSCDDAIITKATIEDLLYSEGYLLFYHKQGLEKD
PTGS2: Prostaglandin G/H synthase 2 (PTGS2, Homo sapiens, UniProt P35354)
UniProt P35354, sequence (whole entry, looked up): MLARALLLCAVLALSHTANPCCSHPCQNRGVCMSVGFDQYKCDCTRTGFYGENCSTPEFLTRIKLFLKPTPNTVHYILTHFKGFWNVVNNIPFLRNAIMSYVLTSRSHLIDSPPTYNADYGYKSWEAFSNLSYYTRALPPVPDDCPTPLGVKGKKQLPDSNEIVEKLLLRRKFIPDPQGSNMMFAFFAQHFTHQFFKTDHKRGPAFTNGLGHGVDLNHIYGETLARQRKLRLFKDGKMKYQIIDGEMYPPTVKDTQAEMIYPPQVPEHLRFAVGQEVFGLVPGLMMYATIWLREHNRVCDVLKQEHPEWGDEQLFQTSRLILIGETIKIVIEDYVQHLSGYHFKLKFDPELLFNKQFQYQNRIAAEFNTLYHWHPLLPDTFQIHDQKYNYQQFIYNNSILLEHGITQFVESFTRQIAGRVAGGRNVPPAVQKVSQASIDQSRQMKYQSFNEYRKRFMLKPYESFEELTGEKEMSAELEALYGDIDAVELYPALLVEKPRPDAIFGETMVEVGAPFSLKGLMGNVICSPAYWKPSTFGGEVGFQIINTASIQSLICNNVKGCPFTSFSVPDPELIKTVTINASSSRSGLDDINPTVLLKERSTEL
HDAC1: Histone deacetylase 1 (HDAC1, Homo sapiens, UniProt Q13547)
UniProt Q13547, sequence (whole entry, looked up): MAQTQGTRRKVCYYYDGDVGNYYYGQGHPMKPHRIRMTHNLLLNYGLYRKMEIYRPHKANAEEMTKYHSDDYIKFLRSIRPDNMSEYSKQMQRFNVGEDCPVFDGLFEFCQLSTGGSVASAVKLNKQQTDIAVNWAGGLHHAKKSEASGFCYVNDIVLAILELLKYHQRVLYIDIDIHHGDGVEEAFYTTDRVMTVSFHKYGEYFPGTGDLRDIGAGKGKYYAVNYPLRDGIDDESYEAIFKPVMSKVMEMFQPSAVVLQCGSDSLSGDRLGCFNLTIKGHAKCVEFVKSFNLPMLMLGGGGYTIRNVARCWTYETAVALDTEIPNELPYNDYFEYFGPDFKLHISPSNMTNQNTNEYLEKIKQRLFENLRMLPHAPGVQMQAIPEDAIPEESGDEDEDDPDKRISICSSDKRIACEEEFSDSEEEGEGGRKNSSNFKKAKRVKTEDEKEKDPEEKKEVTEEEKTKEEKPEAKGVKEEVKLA
PDE10A: cAMP and cAMP-inhibited cGMP 3',5'-cyclic phosphodiesterase 10A (PDE10A, Homo sapiens, UniProt Q9Y233)
UniProt Q9Y233, sequence (whole entry, looked up): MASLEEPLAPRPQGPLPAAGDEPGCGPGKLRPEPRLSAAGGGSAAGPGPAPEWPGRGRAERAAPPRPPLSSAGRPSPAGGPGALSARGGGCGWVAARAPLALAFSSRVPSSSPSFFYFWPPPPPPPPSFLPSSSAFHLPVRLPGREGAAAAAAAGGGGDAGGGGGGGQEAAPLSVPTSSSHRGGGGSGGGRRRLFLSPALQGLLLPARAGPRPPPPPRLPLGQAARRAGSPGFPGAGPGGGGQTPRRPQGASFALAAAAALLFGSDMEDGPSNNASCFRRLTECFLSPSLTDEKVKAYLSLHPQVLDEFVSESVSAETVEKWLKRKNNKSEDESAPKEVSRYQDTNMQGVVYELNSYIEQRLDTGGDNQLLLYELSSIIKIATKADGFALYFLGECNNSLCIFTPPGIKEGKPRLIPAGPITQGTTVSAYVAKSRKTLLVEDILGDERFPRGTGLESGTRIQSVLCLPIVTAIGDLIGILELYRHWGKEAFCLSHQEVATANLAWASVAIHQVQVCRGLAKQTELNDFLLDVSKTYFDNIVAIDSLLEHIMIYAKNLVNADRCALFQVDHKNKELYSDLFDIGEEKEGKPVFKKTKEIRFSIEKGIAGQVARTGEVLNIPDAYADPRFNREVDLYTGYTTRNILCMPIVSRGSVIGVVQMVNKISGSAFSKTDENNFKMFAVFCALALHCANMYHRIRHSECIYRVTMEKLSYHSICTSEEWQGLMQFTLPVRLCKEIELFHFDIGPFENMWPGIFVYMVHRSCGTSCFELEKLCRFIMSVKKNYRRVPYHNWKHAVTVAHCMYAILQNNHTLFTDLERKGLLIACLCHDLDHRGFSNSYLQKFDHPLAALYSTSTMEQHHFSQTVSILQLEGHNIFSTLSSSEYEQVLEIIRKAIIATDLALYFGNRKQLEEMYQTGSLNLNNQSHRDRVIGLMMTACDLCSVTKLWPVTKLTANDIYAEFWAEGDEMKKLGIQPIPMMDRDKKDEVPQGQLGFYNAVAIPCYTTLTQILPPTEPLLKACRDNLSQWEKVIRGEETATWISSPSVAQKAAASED
GSK3B: Glycogen synthase kinase-3 beta (GSK3B, Homo sapiens, UniProt P49841)
UniProt P49841, sequence (whole entry, looked up): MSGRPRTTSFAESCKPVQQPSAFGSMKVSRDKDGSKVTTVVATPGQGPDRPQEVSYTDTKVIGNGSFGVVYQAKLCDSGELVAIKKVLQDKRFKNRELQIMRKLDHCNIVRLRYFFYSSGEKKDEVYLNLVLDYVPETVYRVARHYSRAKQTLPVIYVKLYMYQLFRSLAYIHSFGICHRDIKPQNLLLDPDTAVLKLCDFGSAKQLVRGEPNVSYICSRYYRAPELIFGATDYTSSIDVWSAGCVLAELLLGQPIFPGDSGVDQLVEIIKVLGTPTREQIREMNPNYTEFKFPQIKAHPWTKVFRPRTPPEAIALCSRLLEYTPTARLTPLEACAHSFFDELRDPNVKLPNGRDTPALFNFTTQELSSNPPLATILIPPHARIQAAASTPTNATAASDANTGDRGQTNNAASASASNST
MPO: Myeloperoxidase (MPO, Homo sapiens, UniProt P05164)
SCN1A: Sodium channel protein type 1 subunit alpha (SCN1A, Homo sapiens, UniProt P35498)
SLC6A4: Sodium-dependent serotonin transporter (SLC6A4, Homo sapiens, UniProt P31645)
HDAC6: Protein deacetylase HDAC6 (HDAC6, Homo sapiens, UniProt Q9UBN7)
UniProt Q9UBN7, sequence (whole entry, looked up): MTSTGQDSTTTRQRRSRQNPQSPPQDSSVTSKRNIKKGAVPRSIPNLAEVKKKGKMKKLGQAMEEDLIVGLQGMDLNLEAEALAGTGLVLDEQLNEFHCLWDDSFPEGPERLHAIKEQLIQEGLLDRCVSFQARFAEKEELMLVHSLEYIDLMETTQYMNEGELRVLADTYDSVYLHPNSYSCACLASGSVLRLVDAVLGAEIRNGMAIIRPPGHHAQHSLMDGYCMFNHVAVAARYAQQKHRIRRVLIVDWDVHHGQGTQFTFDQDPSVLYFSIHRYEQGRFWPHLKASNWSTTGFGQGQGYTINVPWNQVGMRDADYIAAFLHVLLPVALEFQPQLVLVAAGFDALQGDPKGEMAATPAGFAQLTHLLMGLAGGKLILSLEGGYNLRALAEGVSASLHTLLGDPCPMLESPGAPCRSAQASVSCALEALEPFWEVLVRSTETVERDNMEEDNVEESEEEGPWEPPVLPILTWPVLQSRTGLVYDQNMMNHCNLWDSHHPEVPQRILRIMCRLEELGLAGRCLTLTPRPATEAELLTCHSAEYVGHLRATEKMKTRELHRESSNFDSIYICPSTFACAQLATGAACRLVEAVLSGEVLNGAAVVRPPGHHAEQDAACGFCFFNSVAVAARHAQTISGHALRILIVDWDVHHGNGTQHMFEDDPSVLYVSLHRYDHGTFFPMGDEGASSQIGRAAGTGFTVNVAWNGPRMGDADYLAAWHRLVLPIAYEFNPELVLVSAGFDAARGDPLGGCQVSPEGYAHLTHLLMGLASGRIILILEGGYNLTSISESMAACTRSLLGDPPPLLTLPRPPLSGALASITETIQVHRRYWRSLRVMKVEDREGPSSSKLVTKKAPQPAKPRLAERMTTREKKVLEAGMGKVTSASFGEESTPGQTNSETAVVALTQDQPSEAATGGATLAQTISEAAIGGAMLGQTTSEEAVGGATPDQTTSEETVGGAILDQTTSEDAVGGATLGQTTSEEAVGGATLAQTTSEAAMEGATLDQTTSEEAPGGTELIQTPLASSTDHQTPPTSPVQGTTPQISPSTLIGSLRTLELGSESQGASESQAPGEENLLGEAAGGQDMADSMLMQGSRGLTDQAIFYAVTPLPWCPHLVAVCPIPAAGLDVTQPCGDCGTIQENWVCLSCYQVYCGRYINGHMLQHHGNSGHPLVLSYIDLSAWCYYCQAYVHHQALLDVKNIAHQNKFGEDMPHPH
SIRT6: NAD-dependent protein deacylase sirtuin-6 (SIRT6, Homo sapiens, UniProt Q8N6T7)
UniProt Q8N6T7, sequence (whole entry, looked up): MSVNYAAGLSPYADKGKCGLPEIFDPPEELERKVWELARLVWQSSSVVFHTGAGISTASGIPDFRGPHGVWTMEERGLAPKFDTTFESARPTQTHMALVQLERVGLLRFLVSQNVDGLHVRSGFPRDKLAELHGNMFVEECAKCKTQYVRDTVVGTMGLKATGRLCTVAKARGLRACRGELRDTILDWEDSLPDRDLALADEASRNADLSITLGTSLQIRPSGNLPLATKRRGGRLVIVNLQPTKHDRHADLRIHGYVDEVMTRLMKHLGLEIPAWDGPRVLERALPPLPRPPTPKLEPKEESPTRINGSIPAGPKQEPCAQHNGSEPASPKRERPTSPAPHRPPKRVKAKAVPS
UniProt P00374, sequence (whole entry, looked up): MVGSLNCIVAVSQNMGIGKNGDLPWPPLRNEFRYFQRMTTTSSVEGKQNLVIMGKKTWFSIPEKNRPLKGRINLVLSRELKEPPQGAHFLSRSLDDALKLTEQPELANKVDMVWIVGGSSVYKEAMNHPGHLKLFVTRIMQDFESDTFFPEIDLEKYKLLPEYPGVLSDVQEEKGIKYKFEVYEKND

Cc1cc(C(C)(C)C)ccc1OS(=O)(=O)Oc1cccc(C(=O)NO)c1C  inhibition (Histone deacetylase 8 (HDAC8, Homo sapiens, UniProt Q9BY41); enzyme activity, inhibitor, fluorescence; 10 µM): 17%
C[C@@]12C[C@@]3(O)O[C@@H](O1)[C@]1(COC(=O)c4ccccc4)[C@H]3C[C@@]12O[C@@H]1O[C@H](CO)[C@@H](O)[C@H](O)[C@H]1O  inhibition (USP51; enzyme activity, inhibitor; 5 µM): 61%
O=C(O)c1ccc(O)cc1  inhibition (PTGS2; enzyme activity, inhibitor; 7.81 µg/mL): 82.1%
CC(C)(C)c1cccc(OS(=O)(=O)Oc2cccc(C(=O)NO)c2)c1  inhibition (HDAC1; enzyme activity, inhibitor, fluorescence; 10 µM): 30%
COc1cc2ncnc(Cc3cccc(-c4cccc(CO)c4)c3)c2cc1OC  inhibition (PDE10A; enzyme activity, inhibitor, FP; 0.1 µM): 71%
CC[C@H](C)[C@H](NC(=O)[C@H](CCC(N)=O)NC(=O)[C@H](CC(C)C)NC(=O)[C@H](CCSC)NC(=O)[C@H](CCCCN)NC(=O)[C@H](CO)NC(=O)[C@H](CO)NC(=O)[C@H](CCSC)NC(=O)[C@H](CC(C)C)NC(=O)[C@H](CC(N)=O)NC(=O)[C@@H](NC(=O)[C@@H](NC(=O)[C@H](CO)NC(=O)[C@H](CC(C)C)NC(=O)[C@H](CS)NC(=O)[C@H](CCCNC(=N)N)NC(=O)[C@H](CC(=O)O)NC(=O)[C@H](Cc1c[nH]c2ccccc12)NC(=O)[C@H](Cc1ccccc1)NC(=O)[C@H](C)NC(=O)[C@H](CCC(=O)O)NC(=O)[C@@H](N)CCCCN)C(C)C)[C@@H](C)CC)C(=O)N[C@@H](CC(N)=O)C(=O)N[C@@H](C)C(=O)O  inhibition (GSK3B; enzyme activity, inhibitor, radiometric; 250 µM): -19%
COc1ccc(Cc2ccnc3cc(OC)c(OC)cc23)cc1OC  inhibition (PDE10A; enzyme activity, inhibitor, FP; 0.1 µM): 26%
CC(C)OCCn1c(=S)[nH]c(=O)c2[nH]ccc21  inhibition (MPO; enzyme activity, inhibitor, fluorescence; 61.7 nM): 57.8%
COc1cc2ccc(=O)oc2c(O[C@@H]2O[C@H](CO)[C@@H](O)[C@H](O)[C@H]2O)c1O  inhibition (USP51; enzyme activity, inhibitor; 5 µM): 0%
O=C(NO)c1cc(F)cc(OS(=O)(=O)Oc2ccc(-n3ccnc3)cc2)c1  inhibition (HDAC1; enzyme activity, inhibitor, fluorescence; 5 µM): 39%
CCc1nn(C)c2nc(-c3ccc(C(=O)O)cc3)nc(NCc3ccc(F)cc3)c12  inhibition (PDE10A; enzyme activity, inhibitor, radiometric; 10 µM): 36.5%
Cn1c(=O)c2[nH]cnc2n(C)c1=O  inhibition (SCN1A; ion current, inhibitor, patch clamp; 10 µM): -4.66%
OC[C@H]1O[C@@H](Oc2cc(O)cc(/C=C/c3ccc(O)cc3)c2)[C@H](O)[C@@H](O)[C@@H]1O  inhibition (USP51; enzyme activity, inhibitor; 5 µM): 9%
O=c1cc(-c2ccc(O)c(O)c2)oc2cc(O)cc(O)c12  inhibition (PTGS2; enzyme activity, inhibitor; 15.63 µg/mL): 100%
CCOC(=O)[C@@]12C[C@@H]1[C@@H](n1cnc3c(NCCO)nc(I)nc31)[C@H](O)[C@@H]2O  inhibition (SLC6A4; ligand displacement, radioligand; 10 µM): 13%
COc1cc([C@H]2Oc3cc([C@H]4Oc5cc(O)cc(O)c5C(=O)[C@@H]4O)ccc3O[C@@H]2CO)ccc1O  inhibition (USP51; enzyme activity, inhibitor; 5 µM): 13%
S=C(NCCc1ccccc1)NN=Cc1ccc(N2CCCCC2)cc1  inhibition (Dihydrofolate reductase (DHFR, Homo sapiens, UniProt P00374); enzyme activity, inhibitor; 500 µM): 86.4%
C[C@H](CCC(=O)O)[C@H]1CC[C@H]2[C@@H]3[C@H](O)C[C@@H]4C[C@H](O)CC[C@]4(C)[C@H]3CC[C@]12C  inhibition (USP51; enzyme activity, inhibitor; 5 µM): 15%
CC[C@H](C)[C@H](NC(=O)[C@H](CCC(N)=O)NC(=O)[C@@H](NC(=O)[C@H](CCSC)NC(=O)[C@H](CCCCN)NC(=O)[C@H](CO)NC(=O)[C@@H](NC(=O)[C@H](CCSC)NC(=O)[C@H](CC(C)C)NC(=O)[C@H](CC(N)=O)NC(=O)[C@@H](NC(=O)[C@@H](NC(=O)[C@H](CO)NC(=O)[C@H](CC(C)C)NC(=O)[C@H](C)NC(=O)[C@H](CCCNC(=N)N)NC(=O)[C@H](CCC(=O)O)NC(=O)[C@H](Cc1ccc(O)cc1)NC(=O)[C@H](Cc1ccccc1)NC(=O)[C@H](C)NC(=O)[C@H](CC(N)=O)NC(=O)[C@@H](N)CCCCN)[C@@H](C)CC)[C@@H](C)CC)[C@@H](C)O)C(C)C)C(=O)N[C@@H](CC(N)=O)C(=O)N[C@H](C(=O)O)C(C)C  inhibition (GSK3B; enzyme activity, inhibitor, radiometric; 50 µM): -6%
NCCS(=O)(=O)O  inhibition (USP51; enzyme activity, inhibitor; 5 µM): 15%
C#Cc1cc(-c2cc(Nc3nc(N[C@@H](C)c4ccc(F)cn4)ncc3Cl)n[nH]2)ccc1C=O  inhibition (Phosphorylase b kinase gamma catalytic chain, liver/testis isoform (PHKG2, Homo sapiens, UniProt P15735); enzyme activity, inhibitor; 0.2 µM): 32.2%
O=C1NC(=O)C(c2ccccc2)(c2ccccc2)N1  inhibition (Potassium voltage-gated channel subfamily A member 1 (KCNA1, Homo sapiens, UniProt Q09470); ion current, inhibitor, patch clamp; 3 µM): 10.5%
O=C(NO)c1cc(F)cc(OS(=O)(=O)Oc2ccccc2)c1  inhibition (HDAC1; enzyme activity, inhibitor, fluorescence; 5 µM): 14%
COc1cc([C@H]2OC[C@H]3[C@@H]2CO[C@@H]3c2cc(OC)c(O)c(OC)c2)cc(OC)c1O  inhibition (PTGS2; enzyme activity, inhibitor; 0.49 µg/mL): 32.2%
CCCCCCC#Cc1cncc(-c2nnc(SCc3ccc(Cl)cc3)n2CCCN)c1  inhibition (mraY (Staphylococcus aureus, UniProt Q2FZ93); cell-free assay, inhibitor; 250 µM): 34%
Cc1c(OS(=O)(=O)Oc2cccc(C(C)(C)C)c2)cccc1C(=O)NO  inhibition (HDAC6; enzyme activity, inhibitor, fluorescence; 10 µM): 18%
NC/C(=C\F)COc1cccc(Cn2c(=S)[nH]c(=O)c3[nH]cnc32)c1  inhibition (MPO; enzyme activity, inhibitor, fluorescence; 1.111 µM): 98.9%
CNCCCC12CCC(c3ccccc31)c1ccccc12  inhibition (SCN1A; ion current, inhibitor, patch clamp; 30 µM): 76.6%
CN1CC(Oc2cnc(C#N)cc2-c2ccn3nc(NC(=O)C4CC4)cc3c2)C1  inhibition (Serine/threonine-protein kinase PLK3 (PLK3, Homo sapiens, UniProt Q9H4B4); enzyme activity, inhibitor; 1 µM): 1%
CC(C)(C)c1ccc(OS(=O)(=O)Oc2cccc(C(=O)NO)c2)cc1  inhibition (HDAC6; enzyme activity, inhibitor, fluorescence; 10 µM): 30%
O=c1cc(-c2ccc(O)cc2)oc2cc(O)cc(O)c12  inhibition (PTGS2; enzyme activity, inhibitor; 15.63 µg/mL): 100%
COc1cccc(-c2cccc(Cc3ncnc4cc(OC)c(OC)cc34)c2)c1  inhibition (PDE10A; enzyme activity, inhibitor, FP; 0.1 µM): 65%
COc1cc(-c2cc(=O)c3c(O)cc(O)cc3o2)ccc1O  inhibition (PTGS2; enzyme activity, inhibitor; 1.95 µg/mL): 19.2%
C[C@H]1[C@@H](O)O[C@@H]2O[C@@]3(C)CC[C@H]4[C@H](C)CC[C@@H]1[C@@]24OO3  inhibition (USP51; enzyme activity, inhibitor; 5 µM): 0%
O=C(/C=C/c1cccc(OS(=O)(=O)Oc2ccc(C(F)(F)F)cc2)c1)NO  inhibition (Histone deacetylase 5 (HDAC5, Homo sapiens, UniProt Q9UQL6); enzyme activity, inhibitor, fluorescence; 10 µM): 22%
CC(C)c1[nH]c2nc(N)nn2c(=O)c1Cc1cc(Cl)cc(Cl)c1  inhibition (C-C chemokine receptor type 5 (CCR5, Homo sapiens, UniProt P51681); β-arrestin recruitment, antagonist; 1 µM): 89%
N#CC[C@@]12C[C@@H]1[C@@H](n1cnc3c(NCCCCCCc4ccccc4)nc(I)nc31)[C@H](O)[C@@H]2O  inhibition (SLC6A4; ligand displacement, radioligand; 10 µM, cell membranes): 82%
NC(=O)c1ccc(C(=O)NOCc2ccc(Sc3ccccc3)c(C(F)(F)F)c2)cc1  inhibition (SIRT6; enzyme activity, inhibitor, fluorescence; 100 µM): 98.6%
Cc1cc(O)c(-c2ccc([C@@H](C)CN(C)C)cc2)c2c1[nH]c(=O)c1sccc12  inhibition (EKC/KEOPS complex subunit TP53RK (TP53RK, Homo sapiens, UniProt Q96S44); cell-free assay, inhibitor; 0.1 µM, lysate): 5.18%
NC(=O)c1ccc(C(=O)NOCc2ccc(Sc3cc(F)cc(F)c3)c(C(F)(F)F)c2)cc1  inhibition (SIRT6; enzyme activity, inhibitor, fluorescence; 100 µM): 100%
Oc1cccc(Nc2nc(-c3ccc(F)cc3F)cs2)c1  inhibition (Delta-type opioid receptor (OPRD1, Homo sapiens, UniProt P41143); ligand displacement; 10 µM): 46.7%
OCCc1ccc(O)c(O)c1  inhibition (USP51; enzyme activity, inhibitor; 5 µM): 21%
CC(C)(C)c1ccc(OS(=O)(=O)Oc2cc(F)cc(C(=O)NO)c2)cc1  inhibition (HDAC1; enzyme activity, inhibitor, fluorescence; 5 µM): 10%
COC(=O)c1ccc(O)cc1  inhibition (PTGS2; enzyme activity, inhibitor; 0.24 µg/mL): 0%

For quick reference, copied from above:
NC(=O)c1ccc(C(=O)NOCc2ccc(Sc3ccccc3)c(C(F)(F)F)c2)cc1  inhibition (SIRT6; enzyme activity, inhibitor, fluorescence; 100 µM): 98.6%
CCOC(=O)[C@@]12C[C@@H]1[C@@H](n1cnc3c(NCCO)nc(I)nc31)[C@H](O)[C@@H]2O  inhibition (SLC6A4; ligand displacement, radioligand; 10 µM): 13%
